{"data": "Published values of several laboratories", "ESR1": "Estrogen receptor (ESR1, Homo sapiens, UniProt P03372)", "OPRM1": "Mu-type opioid receptor (OPRM1, Homo sapiens, UniProt P35372)", "CNR2": "Cannabinoid receptor 2 (CNR2, Homo sapiens, UniProt P34972)", "Kelch domain-containing protein 2": "Kelch domain-containing protein 2 (UniProt Q9Y2U9)", "note": "Compare with care: the assays were run in different laboratories. “And” joins repeats or separate records; there may be more than shown. ± marks the error that the study gave. The star is where a group is joined.", "UniProt P35372, sequence (whole entry, looked up)": "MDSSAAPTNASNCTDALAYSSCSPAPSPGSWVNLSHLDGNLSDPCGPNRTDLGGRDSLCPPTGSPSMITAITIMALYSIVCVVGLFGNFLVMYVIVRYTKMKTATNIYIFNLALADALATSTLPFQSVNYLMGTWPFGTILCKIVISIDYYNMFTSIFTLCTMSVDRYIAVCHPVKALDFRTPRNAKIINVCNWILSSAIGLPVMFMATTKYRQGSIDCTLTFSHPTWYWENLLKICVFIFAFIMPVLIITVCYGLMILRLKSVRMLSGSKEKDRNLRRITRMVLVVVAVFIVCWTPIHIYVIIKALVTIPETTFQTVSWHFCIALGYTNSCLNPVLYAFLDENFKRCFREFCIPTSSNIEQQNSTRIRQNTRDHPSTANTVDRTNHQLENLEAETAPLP", "UniProt P03372, sequence (whole entry, looked up)": "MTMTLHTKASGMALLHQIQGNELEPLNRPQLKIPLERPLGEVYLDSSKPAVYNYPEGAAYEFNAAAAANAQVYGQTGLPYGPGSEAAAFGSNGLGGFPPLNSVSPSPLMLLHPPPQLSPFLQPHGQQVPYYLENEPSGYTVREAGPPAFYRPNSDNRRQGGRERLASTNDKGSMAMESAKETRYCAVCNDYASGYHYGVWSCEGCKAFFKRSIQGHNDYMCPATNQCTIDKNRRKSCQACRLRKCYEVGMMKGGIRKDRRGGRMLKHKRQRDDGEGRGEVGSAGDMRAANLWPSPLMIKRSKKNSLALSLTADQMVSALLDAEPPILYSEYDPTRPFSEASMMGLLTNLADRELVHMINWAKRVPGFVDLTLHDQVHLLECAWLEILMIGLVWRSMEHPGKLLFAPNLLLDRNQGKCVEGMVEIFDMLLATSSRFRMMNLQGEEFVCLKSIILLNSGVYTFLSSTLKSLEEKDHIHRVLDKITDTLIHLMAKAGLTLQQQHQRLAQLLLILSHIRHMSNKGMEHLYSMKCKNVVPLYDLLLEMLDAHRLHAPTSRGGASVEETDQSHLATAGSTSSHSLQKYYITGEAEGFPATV", "UniProt P03962, sequence (whole entry, unmodified, looked up)": "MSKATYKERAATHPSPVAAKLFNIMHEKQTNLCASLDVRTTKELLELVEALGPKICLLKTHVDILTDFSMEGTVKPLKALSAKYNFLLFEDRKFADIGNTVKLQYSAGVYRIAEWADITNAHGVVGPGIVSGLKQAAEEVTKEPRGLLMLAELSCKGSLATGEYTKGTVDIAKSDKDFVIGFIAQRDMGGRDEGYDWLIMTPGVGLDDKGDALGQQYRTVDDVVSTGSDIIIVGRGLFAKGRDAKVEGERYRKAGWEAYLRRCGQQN", "UniProt P34972, sequence (whole entry, looked up)": "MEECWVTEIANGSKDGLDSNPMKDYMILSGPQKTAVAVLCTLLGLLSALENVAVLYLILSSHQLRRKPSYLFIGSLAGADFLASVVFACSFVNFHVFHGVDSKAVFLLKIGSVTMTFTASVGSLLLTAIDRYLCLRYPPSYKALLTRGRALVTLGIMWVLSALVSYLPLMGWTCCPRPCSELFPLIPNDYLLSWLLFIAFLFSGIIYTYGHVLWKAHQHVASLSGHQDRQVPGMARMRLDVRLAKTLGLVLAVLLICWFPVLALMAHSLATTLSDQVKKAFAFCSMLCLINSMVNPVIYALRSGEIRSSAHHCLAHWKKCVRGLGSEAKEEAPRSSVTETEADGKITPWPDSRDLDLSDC", "UniProt Q9Y2U9, sequence (whole entry, looked up)": "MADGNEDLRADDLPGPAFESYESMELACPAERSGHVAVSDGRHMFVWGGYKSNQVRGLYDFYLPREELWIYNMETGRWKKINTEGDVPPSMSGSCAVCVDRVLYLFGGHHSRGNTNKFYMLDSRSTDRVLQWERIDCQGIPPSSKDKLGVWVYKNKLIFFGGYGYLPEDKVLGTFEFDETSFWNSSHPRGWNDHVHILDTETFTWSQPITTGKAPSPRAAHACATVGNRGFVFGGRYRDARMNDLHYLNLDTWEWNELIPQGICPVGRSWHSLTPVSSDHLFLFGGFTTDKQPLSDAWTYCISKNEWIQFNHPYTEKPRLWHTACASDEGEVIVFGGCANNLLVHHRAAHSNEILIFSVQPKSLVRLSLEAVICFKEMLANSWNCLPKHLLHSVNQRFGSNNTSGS", "UniProt P0AFU8, sequence (whole entry, looked up)": "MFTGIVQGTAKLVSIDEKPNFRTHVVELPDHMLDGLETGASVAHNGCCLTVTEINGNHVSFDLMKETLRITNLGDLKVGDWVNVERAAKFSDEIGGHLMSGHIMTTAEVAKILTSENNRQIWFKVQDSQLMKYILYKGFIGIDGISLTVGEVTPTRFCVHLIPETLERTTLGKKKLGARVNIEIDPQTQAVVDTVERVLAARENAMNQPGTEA", "UniProt Q15858, sequence (whole entry, looked up)": "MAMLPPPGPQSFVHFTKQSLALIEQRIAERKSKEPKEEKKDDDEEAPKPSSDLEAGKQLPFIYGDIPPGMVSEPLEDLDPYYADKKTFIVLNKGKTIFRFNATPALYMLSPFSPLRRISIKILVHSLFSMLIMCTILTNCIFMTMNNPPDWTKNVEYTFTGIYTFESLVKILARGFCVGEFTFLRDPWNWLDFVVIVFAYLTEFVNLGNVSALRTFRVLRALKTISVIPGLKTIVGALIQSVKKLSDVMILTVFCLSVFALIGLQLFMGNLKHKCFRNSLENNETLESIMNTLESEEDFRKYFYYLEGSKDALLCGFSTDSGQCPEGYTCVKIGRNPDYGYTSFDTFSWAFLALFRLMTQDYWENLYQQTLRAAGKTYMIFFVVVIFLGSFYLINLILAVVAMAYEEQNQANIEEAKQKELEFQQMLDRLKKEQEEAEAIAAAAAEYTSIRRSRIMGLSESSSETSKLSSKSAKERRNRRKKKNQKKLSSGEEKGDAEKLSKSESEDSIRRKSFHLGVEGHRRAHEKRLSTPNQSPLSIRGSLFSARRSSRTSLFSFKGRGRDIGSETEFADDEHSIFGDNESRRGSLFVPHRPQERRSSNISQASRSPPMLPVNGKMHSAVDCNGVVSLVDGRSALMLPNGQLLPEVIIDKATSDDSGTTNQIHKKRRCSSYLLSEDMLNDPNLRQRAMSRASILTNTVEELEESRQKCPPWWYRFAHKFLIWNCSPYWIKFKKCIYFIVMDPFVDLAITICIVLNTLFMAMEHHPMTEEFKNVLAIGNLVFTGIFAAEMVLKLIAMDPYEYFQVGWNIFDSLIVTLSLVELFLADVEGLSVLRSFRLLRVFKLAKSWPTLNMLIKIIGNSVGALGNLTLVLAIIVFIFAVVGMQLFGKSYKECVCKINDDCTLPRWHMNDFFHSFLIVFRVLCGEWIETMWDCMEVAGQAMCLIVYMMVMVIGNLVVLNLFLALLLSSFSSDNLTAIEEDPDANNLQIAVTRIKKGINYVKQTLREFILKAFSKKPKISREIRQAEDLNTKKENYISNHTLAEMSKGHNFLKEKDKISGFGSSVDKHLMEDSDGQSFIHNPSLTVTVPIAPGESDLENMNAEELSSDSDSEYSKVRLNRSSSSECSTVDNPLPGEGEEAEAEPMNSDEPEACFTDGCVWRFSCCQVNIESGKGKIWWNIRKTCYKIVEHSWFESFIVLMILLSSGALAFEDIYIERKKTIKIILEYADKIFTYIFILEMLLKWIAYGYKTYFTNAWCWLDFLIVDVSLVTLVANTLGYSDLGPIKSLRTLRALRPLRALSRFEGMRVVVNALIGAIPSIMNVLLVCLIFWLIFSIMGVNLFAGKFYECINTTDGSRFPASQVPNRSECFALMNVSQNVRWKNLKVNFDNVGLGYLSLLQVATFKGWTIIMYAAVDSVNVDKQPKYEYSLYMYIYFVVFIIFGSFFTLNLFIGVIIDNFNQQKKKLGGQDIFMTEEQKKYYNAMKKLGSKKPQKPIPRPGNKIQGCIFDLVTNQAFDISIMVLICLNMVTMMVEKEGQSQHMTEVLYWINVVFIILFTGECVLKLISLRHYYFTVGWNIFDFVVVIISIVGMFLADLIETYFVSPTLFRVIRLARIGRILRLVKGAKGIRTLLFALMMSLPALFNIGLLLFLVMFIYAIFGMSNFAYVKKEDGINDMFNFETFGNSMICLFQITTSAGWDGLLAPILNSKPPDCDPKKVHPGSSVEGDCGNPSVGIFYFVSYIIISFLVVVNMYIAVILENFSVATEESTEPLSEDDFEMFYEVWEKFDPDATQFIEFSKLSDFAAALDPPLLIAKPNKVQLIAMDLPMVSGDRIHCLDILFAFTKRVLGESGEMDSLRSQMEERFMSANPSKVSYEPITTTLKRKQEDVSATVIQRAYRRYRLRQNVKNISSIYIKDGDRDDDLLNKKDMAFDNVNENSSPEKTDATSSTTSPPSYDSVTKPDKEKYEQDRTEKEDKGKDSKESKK", "UniProt P23141, sequence (whole entry, looked up)": "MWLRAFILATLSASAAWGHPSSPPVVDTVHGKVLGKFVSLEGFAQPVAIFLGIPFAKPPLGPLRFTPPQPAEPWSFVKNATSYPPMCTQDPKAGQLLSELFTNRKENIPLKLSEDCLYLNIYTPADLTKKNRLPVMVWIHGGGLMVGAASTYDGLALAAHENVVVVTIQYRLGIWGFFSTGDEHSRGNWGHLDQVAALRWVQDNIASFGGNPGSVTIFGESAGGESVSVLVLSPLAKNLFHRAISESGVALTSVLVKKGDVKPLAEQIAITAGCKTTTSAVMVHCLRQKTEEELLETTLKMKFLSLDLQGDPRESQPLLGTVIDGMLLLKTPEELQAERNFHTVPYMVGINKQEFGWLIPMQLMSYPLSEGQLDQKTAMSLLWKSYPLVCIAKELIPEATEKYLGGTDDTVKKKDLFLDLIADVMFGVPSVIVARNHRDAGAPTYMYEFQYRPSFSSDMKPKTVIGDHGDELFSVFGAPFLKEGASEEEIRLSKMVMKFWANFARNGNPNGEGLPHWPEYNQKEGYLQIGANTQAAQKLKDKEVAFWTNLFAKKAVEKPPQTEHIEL", "UniProt P0A6K3, sequence (whole entry, looked up)": "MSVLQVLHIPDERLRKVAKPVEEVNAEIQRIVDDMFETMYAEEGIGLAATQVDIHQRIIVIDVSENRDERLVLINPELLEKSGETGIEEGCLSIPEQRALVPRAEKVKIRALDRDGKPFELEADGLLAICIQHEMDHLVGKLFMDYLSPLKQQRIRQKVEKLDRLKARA"}
{"Molecule": "Clc1ccc(Cl)c(-c2c(Cl)ccc(Cl)c2Cl)c1Cl", "target": "ESR1", "test": "reporter gene, antagonist, ER-CALUX", "system": "T47D.Luc", "setting": "24 h, together with: estradiol 5 pM", "quantity": "IC25", "value": "7.5 µM"}
{"Molecule": "DDEPIYIEFDAHN", "target": "Tyrosine-protein kinase CSK (CSK, Homo sapiens, UniProt P41240)", "test": "substrate, coupled enzyme", "system": "peptide", "setting": "pH 7.4, room temperature, together with: 1 mM ATP, 5 mM MnCl2", "quantity": "kcat/Km", "value": "3800 M⁻¹ s⁻¹"}
{"Molecule": "CC(C)[C@@H](CN1CCN(c2cccc(O)c2)[C@@H](C)C1)NC(=O)c1ccc(Oc2ccccc2)cc1", "target": "OPRM1", "test": "antagonist", "system": "CHO", "setting": "together with: DAMGO", "quantity": "Ke", "value": "51 nM"}
{"Molecule": "O=c1[nH]c(/C=C/c2ccc3ccccc3c2)c([N+](=O)[O-])c(=O)[nH]1", "target": "Riboflavin synthase (ribC, Escherichia coli, UniProt P0AFU8)", "test": "enzyme activity, substrate", "system": "Escherichia coli, recombinant riboflavin synthase", "setting": "pH 7.0", "quantity": "Ks", "value": "2.2 ± 0.1 µM"}
{"Molecule": "Nc1nc2c(c(=O)[nH]1)N1CN(c3ccc(C(=O)N[C@@H](CCC(=O)O)C(=O)O)cc3)C[C@H]1CN2", "target": "5,10-methylenetetrahydrofolate reductase (metF, Escherichia coli, UniProt P0AEZ1, F223A)", "test": "oxidative half-reaction, fast phase, substrate, stopped-flow", "setting": "25 °C", "quantity": "observed rate constant", "value": "11 ± 2 s⁻¹"}
{"Molecule": "CC(C)(NC(=O)c1nn(CC2CCCC2)c2ccccc12)c1cccc(C(N)=O)c1", "target": "CNR2", "test": "calcium mobilization, agonist", "system": "CHO-K1 expressing Gαq16", "how to read": "baseline: CP55,940 maximum", "quantity": "Emax", "value": "40 ± 9%"}
{"Molecule": "CN(C)C(=N)N=C(N)N", "target": "Solute carrier family 22 member 2 (SLC22A2, Homo sapiens, UniProt O15244)", "quantity": "unstirred water layer bias", "value": "~75 µM"}
{"Molecule": "GGNWTT", "target": "UDP-glucose:protein N-beta-glucosyltransferase (Actinobacillus pleuropneumoniae serotype 5b, UniProt A3N2T3, D215R/Q469A)", "test": "substrate", "system": "peptide", "setting": "15 min, pH 8.0, 37 °C, D215R mutant, together with: UDP-Glc 100 mM", "quantity": "apparent kcat", "value": "0.27 ± 0.02 s⁻¹"}
{"Molecule": "Oc1ccc(F)c(-c2ccc(-c3cc(O)ccc3F)[se]2)c1", "target": "ESR1", "test": "antagonist", "system": "HEK293T", "setting": "highest tested concentration, together with: estradiol 10 nM", "how to read": "baseline: estradiol alone", "quantity": "efficacy", "value": "75 ± 7%"}
{"Molecule": "Cc1ccccc1NC(=O)Oc1ccc2c(c1)[C@]1(C)CCN(C)[C@@H]1N2C", "target": "Liver carboxylesterase 1 (CES1, Homo sapiens, UniProt P23141)", "test": "irreversible inhibitor", "setting": "5× IC50 or 200 µM, 1 h, preincubation then inhibitor removal, together with: o-nitrophenyl acetate substrate", "quantity": "remaining activity", "value": "43.4%"}
{"Molecule": "Nc1nnc(S)s1", "target": "Peptide deformylase (def, Escherichia coli, UniProt P0A6K3)", "setting": "500 µM, over 2 days, stock in DMSO", "how to read": "baseline: control", "quantity": "remaining activity", "value": "94%"}
{"Molecule": "Oc1ccc(-c2ccc(-c3ccc(O)cc3)[se]2)cc1", "target": "ESR1", "test": "antagonist", "system": "HEK293T", "setting": "highest tested concentration, together with: estradiol 10 nM", "how to read": "baseline: estradiol alone", "quantity": "efficacy", "value": "44 ± 10%"}
{"Molecule": "C[C@](O)(Cn1ccc2cc(F)ccc21)C(=O)Nc1ccc(C#N)c(C(F)(F)F)c1", "target": "Glucocorticoid receptor (NR3C1, Homo sapiens, UniProt P04150)", "test": "transactivation, antagonist", "system": "HEK293", "setting": "together with: dexamethasone", "quantity": "IC50?", "value": "~10 µM"}
{"Molecule": "Oc1ccc(-c2c(Cl)cc(Cl)cc2Cl)cc1", "target": "Aequorin-1 (Aequorea victoria, UniProt P07164, C152S/C159S/C187S)", "test": "aequorin bioluminescence, inhibitor", "setting": "2 h, together with: coelenterazine", "quantity": "detection limit", "value": "2.5 µM"}
{"Molecule": "COc1c(O[C@@H]2O[C@H](C(=O)O)[C@@H](O)[C@H](O)[C@H]2O)cc(O)c2c(=O)cc(-c3ccccc3)oc12", "target": "beta-glucuronidase, rat", "test": "substrate", "system": "duodenal and jejunal perfusate", "how to read": "baseline: perfusate over microbial extract", "quantity": "Km ratio", "value": "> 2 fold"}
{"Molecule": "O=S(=O)(F)CCCCCc1ccc(O)cc1", "target": "Fatty-acid amide hydrolase 1, transmembrane domain deleted (Faah, Rattus norvegicus, UniProt P97612)", "test": "covalent inhibitor", "setting": "2-fold molar excess, 60 min", "quantity": "intact mass increase", "value": "227 Da"}
{"Molecule": "Ac-QDEVD-pNA (N-acetyl, C-pNA; pNA = O=[N+]([O-])c1ccc(N*)cc1)", "target": "Caspase-7 (CASP7, Homo sapiens, UniProt P55210)", "test": "substrate hydrolysis, substrate, colorimetric", "setting": "pH 7.5", "quantity": "kcat", "value": "1.05 ± 0.05 s⁻¹"}
{"Molecule": "C[C@H](NC(=O)[C@H](Cc1ccc(O)cc1)NC(=O)[C@H](Cc1ccccc1)NC(=O)[C@H](CCC(=O)O)NC(=O)[C@H](CCC(=O)O)NC(=O)[C@H](CCC(N)=O)NC(=O)[C@H](CCCCN)NC(=O)[C@@H](NS(=O)(=O)c1cccc2c(N(C)C)cccc12)[C@@H](C)O)C(=O)O", "target": "Rho guanine nucleotide exchange factor TIAM1, PDZ domain (TIAM1, Homo sapiens, UniProt Q13009)", "test": "fluorescence anisotropy", "setting": "concentration not given, dansylated peptide", "how to read": "baseline: model peptide Kd over peptide Kd", "quantity": "binding affinity fold change", "value": 4.2}
{"Molecule": "CCCCCc1cc(O)c(C/C=C(\\C)CCC=C(C)C)c(O)c1", "target": "Sodium channel protein type 9 subunit alpha (SCN9A, Homo sapiens, UniProt Q15858)", "test": "peak conductance decrease, automated patch clamp", "how to read": "baseline: vehicle", "quantity": "lowest effective concentration", "value": "4 µM"}
{"Molecule": "COP(=O)(OC)OCc1ccc(C=O)o1", "target": "Hemoglobin subunit alpha, with sickle beta chain (HBA1, Homo sapiens, UniProt P69905)", "test": "oxygen affinity", "system": "sickle red cell lysate", "setting": "2 mM", "how to read": "baseline: untreated", "quantity": "P50 change", "value": "35.7 ± 8.1%"}
{"Molecule": "C/C(=C\\c1csc(C)n1)[C@@H]1C[C@@H]2O[C@]2(C)CCC[C@H](C)[C@H](O)[C@@H](C)C(=O)C(C)(C)[C@@H](O)CC(=O)O1", "target": "microtubules (bovine, glutaraldehyde-fixed)", "test": "competitor", "setting": "25 µM, together with: [3H]peloruside A 2.5 µM", "quantity": "[3H]peloruside A bound per tubulin", "value": "0.78 ± 0.033"}
{"Molecule": "O=C(Cc1ccccc1F)N[C@H]1CCOC1=O", "target": "Transcriptional activator protein LasR (lasR, Pseudomonas aeruginosa, UniProt P25084)", "test": "reporter gene, agonist", "system": "Escherichia coli JLD271/pJN105L/pSC11", "setting": "100 µM", "how to read": "baseline: OdDHL 100 µM", "quantity": "activation", "value": "-4%"}
{"Molecule": "Cc1ccc(Oc2ccc(C(=O)N[C@H](CN3CCN(c4cccc(O)c4)[C@@H](C)C3)C(C)C)cc2)cc1", "target": "OPRM1", "test": "antagonist", "system": "CHO", "setting": "together with: DAMGO", "quantity": "Ke", "value": "20 ± 6 nM"}
{"Molecule": "Nc1ncnc2c1ncn2[C@@H]1O[C@H](COP(=O)(O)OP(=O)(O)NP(=O)(O)O)[C@@H](O)[C@H]1O", "target": "matB (Rhodopseudomonas palustris, UniProt Q6ND88, C106A/K488A/Q457C/R286C)", "test": "nucleotide binding", "setting": "0.5 µM protein, pH 7.0, 20 °C, 10 mM MgCl2", "how to read": "baseline: saturating ligand over no ligand", "quantity": "fluorescence ratio", "value": "3.5 ± 0.1"}
{"Molecule": "O=[PH](O)O", "target": "Orotidine 5'-phosphate decarboxylase (Saccharomyces cerevisiae S288c, UniProt P03962, T100A)", "test": "dianion-activated decarboxylation", "how to read": "baseline: wild type", "quantity": "activation energy change", "value": "< 1 kcal/mol and 0.9 kcal/mol"}
{"Molecule": "GYWSDYWGMTTH", "target": "HIV-1 neutralising antibody 4E10", "test": "phage binding, M13 phage ELISA", "system": "peptide", "setting": "concentration not given", "how to read": "lower = stronger binding", "quantity": "binding titer", "value": "2.3e+08 M13/mL"}
{"Molecule": "Cc1cc(-c2cc(Br)c(-c3cc(C)c(O)c(C)c3)[se]2)cc(C)c1O", "target": "ESR1", "test": "antagonist", "system": "HEK293T", "setting": "highest tested concentration, together with: estradiol 10 nM", "how to read": "baseline: estradiol alone", "quantity": "efficacy", "value": "26 ± 2%"}
{"Molecule": "AEHWIDVRVPEQYQQEHVQGA", "target": "Kelch domain-containing protein 2", "test": "native mass spectrometry", "system": "peptide, 200 mM ammonium acetate", "setting": "20 µM Kelch domain-containing protein 2, pH 7", "how to read": "baseline: total Kelch domain-containing protein 2 signal", "quantity": "fraction of protein bound", "value": "1.6%"}
{"Molecule": "Cc1cc(-c2ccc(-c3ccc(O)c(C)c3)[se]2)ccc1O", "target": "ESR1", "test": "antagonist", "system": "HEK293T", "setting": "highest tested concentration, together with: estradiol 10 nM", "how to read": "baseline: estradiol alone", "quantity": "efficacy", "value": "103 ± 28%"}
{"Molecule": "NS(=O)(=O)NCCNc1nonc1C(=NO)Nc1ccc(F)c(Br)c1", "target": "Indoleamine 2,3-dioxygenase 1 (IDO1, Homo sapiens, UniProt P14902)", "test": "inhibitor, western blot", "system": "HeLa", "setting": "1 µM, 2 h pretreatment, then 24 h, together with: IFN-γ 5 ng/mL plus degrader 5 µM", "quantity": "IDO1 degradation", "value": "inhibited"}
{"Molecule": "CC(C)(NC(=O)c1nn(Cc2ccc(F)cc2)c2ccccc12)C1CCN(CC(N)=O)CC1", "target": "CNR2", "test": "calcium mobilization, agonist", "system": "CHO-K1 expressing Gαq16", "how to read": "baseline: CP55,940 maximum", "quantity": "Emax", "value": "62 ± 2%"}
{"Molecule": "CCCN(CCc1ccc(O)cc1)C(=O)[C@@H](C)c1cccc(C(=O)c2ccccc2)c1", "target": "Luciferin 4-monooxygenase (Photinus pyralis, UniProt P08659)", "test": "enzyme activity, counter-", "system": "C3H10T1/2 cell lysate", "setting": "concentration not given", "quantity": "luciferase inhibition", "value": "no effect"}
{"Molecule": "LGWATAGG", "target": "Kelch domain-containing protein 2", "test": "native mass spectrometry", "system": "peptide, 200 mM ammonium acetate", "setting": "20 µM Kelch domain-containing protein 2, pH 7", "how to read": "baseline: total Kelch domain-containing protein 2 signal", "quantity": "fraction of protein bound", "value": "1.1%"}
{"Molecule": "C[C@]12C[C@H](c3ccc(OCCN=[N+]=[N-])cc3)[C@@H]3c4ccc(O)cc4CC[C@H]3[C@@H]1CC[C@@H]2O", "target": "Estrogen receptor, ligand-binding domain (ESR1, Homo sapiens, UniProt P03372)", "test": "radioligand competition", "setting": "concentration not given, overnight, room temperature, ligand-binding domain, together with: [3H]estradiol", "how to read": "baseline: estradiol", "quantity": "relative binding affinity", "value": "26 to 39%"}
{"note": "Repeated from above:"}
{"Molecule": "C[C@]12C[C@H](c3ccc(OCCN=[N+]=[N-])cc3)[C@@H]3c4ccc(O)cc4CC[C@H]3[C@@H]1CC[C@@H]2O", "target": "Estrogen receptor, ligand-binding domain (ESR1, Homo sapiens, UniProt P03372)", "test": "radioligand competition", "setting": "concentration not given, overnight, room temperature, ligand-binding domain, together with: [3H]estradiol", "how to read": "baseline: estradiol", "quantity": "relative binding affinity", "value": "26 to 39%"}
{"Molecule": "AEHWIDVRVPEQYQQEHVQGA", "target": "Kelch domain-containing protein 2", "test": "native mass spectrometry", "system": "peptide, 200 mM ammonium acetate", "setting": "20 µM Kelch domain-containing protein 2, pH 7", "how to read": "baseline: total Kelch domain-containing protein 2 signal", "quantity": "fraction of protein bound", "value": "1.6%"}
